Published values gathered from unrelated publications.
Each line is one published result; not all experiments were run side by side. Numbers after ± are the reported error.

COc1cccc(OC)c1-c1cc(C(=O)NC2(C(=O)O)C3CC4CC(C3)CC2C4)nn1-c1ccc(C(=O)NCCNC(=O)[C@H](CCCCNC(=O)[C@H](CC(C)C)NC(=O)C2OC2C(=O)O)NC(=O)CN2CCN(CC(=O)[O-])CCN(CC(=O)[O-])CCN(CC(=O)[O-])CC2)cc1C(C)C.[177Lu+3] (mixture of isomers)  tissue uptake (mouse, HT-29 xenograft, heart; 72 h post injection): 0.11 %ID/g
O=C(O)CCCOc1ccc([18F])cc1-c1cc(-c2ccccc2C(F)(F)F)n(-c2ccccc2)n1  tissue uptake (mouse, large intestine; intravenous, dose not given, 60 min): 0.52 ± 0.08 %ID/g
C[n+]1cc(NC(=O)c2ccc3ccc4ccc(C(=O)Nc5cc6ccccc6[n+](C)c5)nc4c3n2)cc2ccccc21  delta Tm (MYC promoter parallel G-quadruplex DNA; UV melting; 3 µM, 10 mM potassium, added: DNA 3 µM): 4.3 °C
N#C[C@@H]1CC(F)(F)CN1C(=O)CNC(=O)c1ccnc2c(NC(=O)CCOCCOCCOCCOCCOCCOCCNC(=O)[C@H](CCCCNC(=O)CN3CCN(CC(=O)[O-])CCN(CC(=O)[O-])CCN(CC(=O)[O-])CC3)NC(=O)CCCc3ccc(I)cc3)cccc12.[177Lu+3]  tissue uptake (mouse, U-87 MG tumour xenograft, lung; 48 h): 0.49 ± 3.6 %ID/g
CCCC[C@H](NC(=O)CNC(=O)CNC(=O)[C@H](CCCCNC(=O)[C@H](CC(=O)O)NC(=O)C(C)c1ccc(CC(C)C)cc1)NC(=O)CN1CCN(CC(=O)O)CCN(CC(=O)O)CCN(CC(=O)O)CC1)C(=O)N[C@H]1CC(=O)NCCCC[C@@H](C(N)=O)NC(=O)[C@H](Cc2c[nH]c3ccccc23)NC(=O)[C@H](CCCNC(=N)N)NC(=O)[C@@H](Cc2ccccc2)NC(=O)[C@H](Cc2c[nH]cn2)NC1=O (stereo partly shown) [lutetium-177 labelled]  tissue uptake (C57 mouse, muscle; intravenous, 2 h, added: 10 µg NDP-MSH co-injection): 0.58 ± 0.26 %ID/g
[11CH3]N1CCC(NC(=O)c2cc(-c3c(O)cc(O)cc3Oc3ccc([N+](=O)[O-])cc3)on2)CC1  tissue uptake (Wistar rat, female, healthy, lungs; intravenous, 30 min): 0.6 ± 0.1 %ID
N#C[C@@H]1CC(F)(F)CN1C(=O)CNC(=O)c1ccnc2c(NC(=O)[C@@H](N)CCCCNC(=O)CCOCCOCCOCCOCCOCCOCCNC(=O)CN3CCN(CC(=O)[O-])CCN(CC(=O)[O-])CCN(CC(=O)[O-])CC3)cccc12.[177Lu+3]  tissue uptake (mouse, U-87 MG tumour xenograft, spleen; 1 h): 0.22 ± 0.07 %ID/g
COc1cccc(OC)c1-c1cc(C(=O)NC2(C(=O)O)C3CC4CC(C3)CC2C4)nn1-c1ccc(C(=O)N(C)CCOCCN(C)C(=O)[C@H](CCCCNC(=O)[C@H](CC(C)C)NC(=O)C2OC2C(=O)O)NC(=O)CN2CCN(CC(=O)[O-])CCN(CC(=O)[O-])CCN(CC(=O)[O-])CC2)cc1C(C)C.[177Lu+3] (mixture of isomers)  tissue uptake (mouse, HT-29 xenograft, muscle; 72 h post injection): 0.06 %ID/g
C=C(NC(=O)c1csc(-c2nc3c(cc2O)-c2nc(cs2)C(=O)NC(C(C)O)C(=O)NC(=C(C)OC)c2nc(cs2)C(=O)NC2c4nc(cs4)C(=O)NC(COC(=O)c4c5c6c(cccc6n4O)COC(=O)C(OC4CC(C)(O)C(N(C)C)C(C)O4)C2OC5)c2nc-3cs2)n1)C(N)=O (stereo not shown)  AUC(0-inf) (ICR mice, Streptococcus pneumoniae ATCC 49169 infected, immunocompromised, blood; intravenous, 8 mg/kg/day twice daily): 790 ng·h/mL
Cc1cc(C)n(CCN(CCN)CCCCCCNC(=O)[C@@H](N)Cc2c[nH]cn2)n1.[99Tc+].[C-]#[O+].[C-]#[O+].[C-]#[O+]  tissue uptake (BALB/c nude mice, MCF7 xenograft, kidney; intravenous, 15 min): 30.6 ± 1.62 %IA/g
CCCC[C@H](NC(=O)CCCCCCCNC(=O)CN1CCN(CC(=O)O)CCN(CC(=O)O)CC1)C(=O)N[C@H]1CC(=O)NCCCC[C@@H](C(N)=O)NC(=O)[C@H](Cc2c[nH]c3ccccc23)NC(=O)[C@H](CCCNC(=N)N)NC(=O)[C@@H](Cc2ccccc2)NC(=O)[C@H](Cc2c[nH]cn2)NC1=O [fluorine-18 labelled]  tissue uptake (C57 mice B16-F10 melanoma, heart; intravenous, 0.37 MBq, 2 h): 0.45 ± 0.05 %ID/g
N#C[C@@H]1CCCN1C(=O)CNC(=O)c1ccnc2ccc(OCCCN3CCN(C(=O)CCc4ccc5c(c4)CN4CCN(Cc6cc(CCC(=O)O)ccc6O)CC(=O)[O][Al-]([18F])([O]C(=O)C4)[O]5)CC3)cc12 (stereo partly shown)  tissue uptake (BALB/c nude mice, U-87 MG xenograft, liver; 1 h, blocking, added: DOTA-FAPI-04 40 nmol/mouse co-injected): 0.94 ± 0.59 %ID/g
COc1cccc(OC)c1-c1cc(C(=O)NC2(C(=O)O)C3CC4CC(C3)CC2C4)nn1-c1ccc(C(=O)N(C)CCCN(C)CCCN(C)C(=O)[C@H](CCCCNC(=O)[C@H](CC(C)C)NC(=O)C2OC2C(=O)O)NC(=O)CN2CCN(CC(=O)[O-])CCN(CC(=O)[O-])CCN(CC(=O)[O-])CC2)cc1C(C)C.[177Lu+3] (mixture of isomers)  tissue uptake (mouse, HT-29 xenograft, brain; 24 h post injection): 0.07 %ID/g
O=C(NCC1OC2CCC=CCCC2O1)c1ccc([18F])nc1 (stereo not shown)  tissue uptake (healthy female BALB/c nude mice, pancreas; intravenous, 7.4 MBq per mouse, 5 min): 4.6 ± 1.8 %ID/g
COc1cccc(OC)c1-c1cc(C(=O)NC2(C(=O)O)C3CC4CC(C3)CC2C4)nn1-c1ccc(C(=O)N(C)CCCN(C)C(=O)[C@H](CCCCNC(=O)[C@H](CC(C)C)NC(=O)C2OC2C(=O)O)NC(=O)CN2CCN(CC(=O)[O-])CCN(CC(=O)[O-])CCN(CC(=O)[O-])CC2)cc1C(C)C.[177Lu+3] (mixture of isomers)  tissue uptake (mouse, HT-29 xenograft, heart; 168 h post injection): 0.034 %ID/g
C=C1CC[C@H](OCCCNC(=O)CCOCCOCCOCCOCCOCCOCCOCCOCCOCCOCCOCCOCCOCCOCCOCCOCCOCCOCCOCCOCCOCCOCCOCCOCCOCCOCCOCCOCCOCCOCCOCCOCCOCCOCCOCCOCCNC(=O)CCN2C(=O)CC(SC[C@H](NC(=O)[C@H](Cc3ccccc3)NC(=O)[C@H](CC(N)=O)NC(=O)[C@H](Cc3c[nH]cn3)NC(=O)[C@@H](NC(=O)[C@H](CC(=O)O)NC(=O)[C@H](CCC(N)=O)NC(=O)[C@H](CC(C)C)NC(=O)[C@H](CCCCN)NC(=O)[C@H](CCCCN)NC(=O)[C@H](CCCNC(=N)N)NC(=O)[C@H](CC(C)C)NC(=O)[C@H](Cc3c[nH]c4ccccc34)NC(=O)[C@H](CCC(=O)O)NC(=O)[C@@H](NC(=O)[C@H](CCCNC(=N)N)NC(=O)[C@H](CCC(=O)O)NC(=O)[C@H](CCSC)NC(=O)[C@H](CO)NC(=O)[C@H](CC(N)=O)NC(=O)[C@H](CC(C)C)NC(=O)[C@H](Cc3c[nH]cn3)NC(=O)[C@H](CCCCN)NC(=O)CNC(=O)[C@H](CC(C)C)NC(=O)[C@H](CC(N)=O)NC(=O)[C@H](Cc3c[nH]cn3)NC(=O)[C@H](CCSC)NC(=O)[C@H](CC(C)C)NC(=O)[C@H](CCC(N)=O)NC(=O)[C@@H](NC(=O)[C@H](CCC(=O)O)NC(=O)[C@H](CO)NC(=O)[C@@H](NC(=O)[C@@H](N)CO)C(C)C)[C@@H](C)CC)C(C)C)C(C)C)C(=O)O)C2=O)C/C1=C/C=C1\CCC[C@]2(C)[C@@H]([C@H](C)CCCC(C)(C)O)CC[C@@H]12 (stereo partly shown)  Tmax (male cynomolgus monkey, plasma; subcutaneous, 0.007 mg/kg, single dose): 10.7 h
N#C[C@@H]1CC(F)(F)CN1C(=O)CNC(=O)c1ccnc2c(NC(=O)[C@H](CCCCNC(=O)CCOCCOCCOCCOCCOCCOCCNC(=O)CN3CCN(CC(=O)[O-])CCN(CC(=O)[O-])CCN(CC(=O)[O-])CC3)NC(=O)CCCc3ccc(I)cc3)cccc12.[177Lu+3]  tissue uptake (mouse, U-87 MG tumour xenograft, spleen; 72 h): 0.83 ± 0.59 %ID/g
C[n+]1cccc2cc(/C=N/NC(=O)c3cccc(C(=O)N/N=C/c4ccc5c(ccc[n+]5C)c4)c3)ccc21  ΔTm (MYC parallel G4 DNA; FRET melting; 1 µM, DNA 0.2 µM): 3.7 ± 0.1 °C
[123I]c1ccc2nc(-c3ccc(-n4ccnn4)nc3)cn2c1  tissue uptake (Wistar rat, male, adrenals; intravenous, 4 MBq, 30 min): 12.3 ± 4.48 %ID/g

Excerpt of the above:
CCCC[C@H](NC(=O)CCCCCCCNC(=O)CN1CCN(CC(=O)O)CCN(CC(=O)O)CC1)C(=O)N[C@H]1CC(=O)NCCCC[C@@H](C(N)=O)NC(=O)[C@H](Cc2c[nH]c3ccccc23)NC(=O)[C@H](CCCNC(=N)N)NC(=O)[C@@H](Cc2ccccc2)NC(=O)[C@H](Cc2c[nH]cn2)NC1=O [fluorine-18 labelled]  tissue uptake (C57 mice B16-F10 melanoma, heart; intravenous, 0.37 MBq, 2 h): 0.45 ± 0.05 %ID/g
CCCC[C@H](NC(=O)CNC(=O)CNC(=O)[C@H](CCCCNC(=O)[C@H](CC(=O)O)NC(=O)C(C)c1ccc(CC(C)C)cc1)NC(=O)CN1CCN(CC(=O)O)CCN(CC(=O)O)CCN(CC(=O)O)CC1)C(=O)N[C@H]1CC(=O)NCCCC[C@@H](C(N)=O)NC(=O)[C@H](Cc2c[nH]c3ccccc23)NC(=O)[C@H](CCCNC(=N)N)NC(=O)[C@@H](Cc2ccccc2)NC(=O)[C@H](Cc2c[nH]cn2)NC1=O (stereo partly shown) [lutetium-177 labelled]  tissue uptake (C57 mouse, muscle; intravenous, 2 h, added: 10 µg NDP-MSH co-injection): 0.58 ± 0.26 %ID/g
C=C(NC(=O)c1csc(-c2nc3c(cc2O)-c2nc(cs2)C(=O)NC(C(C)O)C(=O)NC(=C(C)OC)c2nc(cs2)C(=O)NC2c4nc(cs4)C(=O)NC(COC(=O)c4c5c6c(cccc6n4O)COC(=O)C(OC4CC(C)(O)C(N(C)C)C(C)O4)C2OC5)c2nc-3cs2)n1)C(N)=O (stereo not shown)  AUC(0-inf) (ICR mice, Streptococcus pneumoniae ATCC 49169 infected, immunocompromised, blood; intravenous, 8 mg/kg/day twice daily): 790 ng·h/mL
